Experimental data collected from several papers.
Parts stem from different laboratories: compare values within a part only. Positions count from the first letter of the parent shown.

Block 1
Target: Fragile X messenger ribonucleoprotein 1, C-terminal low-complexity region (Fmr1, Mus musculus, UniProt P35922)
Technique: RNA Bind-n-Seq
Form: RNA
Matrix: in vitro
Concentration: 200 nM
Setting: whole 134-nt RNA, ends assumed
Added: 150 mM KCl
Relative to: input library
Direction: higher = stronger binding
Measurement: log2 enrichment
Shared flanks, not repeated: GGGAGUUCUACAGUCCGACGAUC … UGGAAUUCUCGGGUGUCAAGG
AGUCCUGUGCUACACAUCGUAUGUACCGAAUCGGGAAAAAGGAAAAAGGAAAAAGGGAAAGUAUUAUGUUACGCCGUUCGGAUCUGCACU: -0.591
CACAGACAACACGCACCCACACAGACACAGAGGGAAGGGGUUGGGAUGGGGACAGGGUGCACAGCAGGGCGGGGUAGGACAAAAGCCCCU: 0.898
UGUGCUACACAUCGUAUGUACCGAAUCGGGGUUUUUUUGGGGUUUUUUUGGUUUUUUUGGGGAAAGUAUUAUGUUACGCCGUUCGGAUCU: 0.156
UUUCACUUCCAGCCAGCUGUGAAGAAGGUGAGCUUGCCUUCCAUCUUCCCCCCUAUCCGCCGCGUAUCUCCGUCGUCUGCAAGCGCGUGA: 0.11
CACAGACAACACGCACCCACACAGACACAGAGGGAAGGGGUUGGGAUGGGGACAGGGUGUACAGCAGGGCGGGGUAGGACCCCAGCCCCU: 1.26
UCAAGUCCUGUGCUACACAUCGUAUGUACCGAAUCGGGCCCGGCCCGGCCCGGGGAAAGUAUUAUGUUACGCCGUUCGGAUCUGCACUUC: -0.664
UAACUUUAGAGGAGGAUCUGAUGGAUAUAGCAGUGGACGUGGAUUUGGGGAUGGCUAUAAUGGGUAUGGAGGAGGACCUGGAGGUGGCAA: 0.366
CUCAAGUCCUGUGCUACACAUCGUAUGUACCGAAUCGGUGGUUUUUUUGGAGGAAAGUAUUAUGUUACGCCGUUCGGAUCUGCACUUCCA: 0.0157
UGGCCCUGGUGGCAUGCGGGGAGGAAGAGGUGGCCUCAUGGAUCGUGGUGGUCCCGGUGGAAUGUUCAGAGGUGGCCGUGGCGGAGACAG: 0.117
GAGAGCGAGGUGGCUUCAAUAAGCCUGGUGGUAAGUUUUUGAGUAUUACCAUAGAUAGUGUUUAAAAAAAAAUGCAGUCAGUUUUUAGAA: -0.471
CUGUGCUACACAUCGUAUGUACCGAAUCAAAUUUUUUUAAAUUUUUUUAAACCCCCCCAAAAAAGUAUUAUGUUACGCCGUUCGGAUCUG: -0.407
GUCCUGUGCUACACAUCGUAUGUACCGAAUCAAAUUUUUAAACCCCCAAAUUUUUAAAAAAGUAUUAUGUUACGCCGUUCGGAUCUGCAC: 0.174
GUCCUGUGCUACACAUCGUAUGUACCGAAUCGGGGCCCCGGGGCCCCGGGGCCCCGGGGAAAGUAUUAUGUUACGCCGUUCGGAUCUGCA: 1.1
AAGUCCUGUGCUACACAUCGUAUGUACCGAAUCGGGAAAAGGAAAAGGGGAAAAGGGAAAGUAUUAUGUUACGCCGUUCGGAUCUGCACU: -0.21

Block 2
Target: Histone acetyltransferase KAT6A, winged helix 2, GST fusion (KAT6A, Homo sapiens, UniProt Q92794, residues 85-181)
Technique: protein binding microarray
Form: double-stranded DNA, one strand shown
Matrix: in vitro
Concentration: not given
Setting: 8-mer, flanks averaged, mean of 2 arrays, mostly near background
Relative to: not given
Direction: higher = stronger binding
Measurement: E-score
Residues (chain): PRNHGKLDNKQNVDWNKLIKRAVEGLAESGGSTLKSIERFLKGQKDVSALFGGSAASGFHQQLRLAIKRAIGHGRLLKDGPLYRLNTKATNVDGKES
GGTGAGGA: 0.147
ACGCTAGG: -0.203
CGACTGAA: 0.138
CGCTAAAA: -0.0687
AGCATCCA: 0.105
CAACCACG: -0.142
TGAGACCA: -0.00931
ACTCAATC: -0.0388
CCAGTATC: -0.188
GCGGAAGC: 0.182
ATTCAAGG: -0.202
CGCGAGTC: 0.0808
ACCACGGC: -0.0248
AGAGACGG: 0.0347

Block 3
Target: ABI1, truncated, D143A, DHFR fusion (Arabidopsis thaliana)
Technique: DHFR PCA, deep sequencing
Matrix: yeast
Setting: methotrexate growth selection, single substitutions
Added: (+)-ABA 0.39 µM
Relative to: wild-type fitted maximum
Direction: higher = stronger binding
Measurement: relative binding score
Starting sequence: PYL1, truncated, DHFR fusion (Arabidopsis thaliana); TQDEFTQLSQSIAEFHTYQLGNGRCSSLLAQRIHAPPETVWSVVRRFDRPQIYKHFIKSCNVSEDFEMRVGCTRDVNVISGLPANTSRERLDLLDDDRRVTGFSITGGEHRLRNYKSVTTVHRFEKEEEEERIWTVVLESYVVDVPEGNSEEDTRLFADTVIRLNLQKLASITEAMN
E151Q: 28.7%
L169S: -8.13%
Q19H: 44.5%
A158Q: 13.9%
S11G: 8.02%
V137H: -3.69%
V62S: -0.967%
L93Q: 13%
M176G: 31.9%
L82D: 3.75%
D97S: 38%
L138E: -5.98%
E38P: 5.58%

Further values, each from its own experiment
PhoQ, residues 284 288 289 292 302 303 NLCILV  fold induction (PhoP, residues 12 14 15 18 19 SFCSL (Escherichia coli, UniProt P23836); Sort-seq, item: YFP reporter; E. coli; PhoQ-PhoP variant library, added: 10 µM Mg2+; relative to: high Mg2+ state, higher = stronger signaling): 22.4

Excerpt of the above (block 1):
UCAAGUCCUGUGCUACACAUCGUAUGUACCGAAUCGGGCCCGGCCCGGCCCGGGGAAAGUAUUAUGUUACGCCGUUCGGAUCUGCACUUC: -0.664
UAACUUUAGAGGAGGAUCUGAUGGAUAUAGCAGUGGACGUGGAUUUGGGGAUGGCUAUAAUGGGUAUGGAGGAGGACCUGGAGGUGGCAA: 0.366
CUCAAGUCCUGUGCUACACAUCGUAUGUACCGAAUCGGUGGUUUUUUUGGAGGAAAGUAUUAUGUUACGCCGUUCGGAUCUGCACUUCCA: 0.0157
UGGCCCUGGUGGCAUGCGGGGAGGAAGAGGUGGCCUCAUGGAUCGUGGUGGUCCCGGUGGAAUGUUCAGAGGUGGCCGUGGCGGAGACAG: 0.117
GAGAGCGAGGUGGCUUCAAUAAGCCUGGUGGUAAGUUUUUGAGUAUUACCAUAGAUAGUGUUUAAAAAAAAAUGCAGUCAGUUUUUAGAA: -0.471
